# Measurements from different studies.
# Each numbered part is a random draw from the data of one study; scales do not carry over between parts.
# Chain of UniProt P32298 (whole entry, looked up): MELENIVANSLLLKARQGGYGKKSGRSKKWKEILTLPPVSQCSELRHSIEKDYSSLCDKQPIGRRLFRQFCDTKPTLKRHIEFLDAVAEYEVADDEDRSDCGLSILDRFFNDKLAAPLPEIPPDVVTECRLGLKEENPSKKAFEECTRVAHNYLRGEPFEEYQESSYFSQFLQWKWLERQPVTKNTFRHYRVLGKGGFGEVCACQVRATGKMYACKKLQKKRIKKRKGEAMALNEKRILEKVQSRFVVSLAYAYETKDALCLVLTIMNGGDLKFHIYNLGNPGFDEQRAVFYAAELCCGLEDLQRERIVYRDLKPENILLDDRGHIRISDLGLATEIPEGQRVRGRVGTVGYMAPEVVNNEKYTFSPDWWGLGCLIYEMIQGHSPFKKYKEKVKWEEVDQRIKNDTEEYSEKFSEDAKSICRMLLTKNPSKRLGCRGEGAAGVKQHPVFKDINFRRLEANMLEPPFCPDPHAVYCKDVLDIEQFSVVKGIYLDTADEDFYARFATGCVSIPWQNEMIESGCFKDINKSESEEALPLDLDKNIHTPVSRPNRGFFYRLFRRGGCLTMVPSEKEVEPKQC
# Chain of UniProt Q9UKI8 (whole entry, looked up): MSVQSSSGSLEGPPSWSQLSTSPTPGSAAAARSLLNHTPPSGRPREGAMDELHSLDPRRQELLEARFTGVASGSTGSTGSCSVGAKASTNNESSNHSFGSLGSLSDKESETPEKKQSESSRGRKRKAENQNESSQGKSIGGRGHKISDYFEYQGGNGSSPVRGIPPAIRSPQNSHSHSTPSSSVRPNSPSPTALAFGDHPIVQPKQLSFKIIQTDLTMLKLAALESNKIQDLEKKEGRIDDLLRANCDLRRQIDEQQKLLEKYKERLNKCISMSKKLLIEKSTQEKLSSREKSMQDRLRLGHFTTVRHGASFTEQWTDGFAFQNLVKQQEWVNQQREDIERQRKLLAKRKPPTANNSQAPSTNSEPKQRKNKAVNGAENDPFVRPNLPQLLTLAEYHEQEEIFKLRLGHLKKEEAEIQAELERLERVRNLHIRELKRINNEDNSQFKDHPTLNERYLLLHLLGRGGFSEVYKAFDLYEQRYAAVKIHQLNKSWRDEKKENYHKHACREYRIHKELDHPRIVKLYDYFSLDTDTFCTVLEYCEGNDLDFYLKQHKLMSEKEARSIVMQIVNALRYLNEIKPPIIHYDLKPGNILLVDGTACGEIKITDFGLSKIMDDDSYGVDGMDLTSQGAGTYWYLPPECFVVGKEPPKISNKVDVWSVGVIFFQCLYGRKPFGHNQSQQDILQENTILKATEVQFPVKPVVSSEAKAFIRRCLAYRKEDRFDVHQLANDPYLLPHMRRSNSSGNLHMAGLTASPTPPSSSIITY
# Chain of UniProt P42336 (whole entry, looked up): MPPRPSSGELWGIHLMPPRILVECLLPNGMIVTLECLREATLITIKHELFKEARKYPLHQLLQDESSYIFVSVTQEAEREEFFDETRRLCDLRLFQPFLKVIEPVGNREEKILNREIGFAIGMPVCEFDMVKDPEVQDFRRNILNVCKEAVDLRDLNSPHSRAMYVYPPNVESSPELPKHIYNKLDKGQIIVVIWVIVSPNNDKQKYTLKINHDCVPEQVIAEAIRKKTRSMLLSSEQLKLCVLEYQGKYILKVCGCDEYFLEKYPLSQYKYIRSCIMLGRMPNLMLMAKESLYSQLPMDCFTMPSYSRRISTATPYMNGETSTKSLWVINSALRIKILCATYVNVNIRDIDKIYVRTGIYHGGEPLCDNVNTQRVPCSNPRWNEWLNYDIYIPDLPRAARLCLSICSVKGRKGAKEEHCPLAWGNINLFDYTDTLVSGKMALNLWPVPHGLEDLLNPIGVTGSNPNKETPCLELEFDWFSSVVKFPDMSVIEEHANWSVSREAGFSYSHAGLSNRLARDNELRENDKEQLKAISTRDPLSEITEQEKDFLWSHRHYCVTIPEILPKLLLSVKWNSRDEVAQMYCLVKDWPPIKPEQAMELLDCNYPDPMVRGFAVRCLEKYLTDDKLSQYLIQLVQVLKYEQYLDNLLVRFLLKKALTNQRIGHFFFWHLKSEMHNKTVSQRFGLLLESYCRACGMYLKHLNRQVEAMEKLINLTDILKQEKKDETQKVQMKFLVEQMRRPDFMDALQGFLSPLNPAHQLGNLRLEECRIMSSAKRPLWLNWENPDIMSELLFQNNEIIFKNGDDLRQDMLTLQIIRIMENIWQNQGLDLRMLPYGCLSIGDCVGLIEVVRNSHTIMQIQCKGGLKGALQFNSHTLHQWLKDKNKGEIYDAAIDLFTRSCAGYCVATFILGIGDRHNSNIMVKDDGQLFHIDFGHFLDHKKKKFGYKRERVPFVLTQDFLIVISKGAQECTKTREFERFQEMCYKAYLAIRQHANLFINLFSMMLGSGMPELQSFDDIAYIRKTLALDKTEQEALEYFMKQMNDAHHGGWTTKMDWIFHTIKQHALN
# Chain of UniProt P11802 (whole entry, looked up): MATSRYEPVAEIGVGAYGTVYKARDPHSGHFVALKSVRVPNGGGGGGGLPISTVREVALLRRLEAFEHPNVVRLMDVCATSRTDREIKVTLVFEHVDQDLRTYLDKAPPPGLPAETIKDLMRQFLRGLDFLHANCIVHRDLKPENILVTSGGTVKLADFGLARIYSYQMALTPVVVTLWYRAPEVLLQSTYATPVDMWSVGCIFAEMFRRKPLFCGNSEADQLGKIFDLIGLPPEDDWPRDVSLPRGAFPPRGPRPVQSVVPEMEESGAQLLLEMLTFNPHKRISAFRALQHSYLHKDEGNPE

# Study 1 — observed: enzyme activity; mode: inhibitor; concentration: 10 µM
# Target: Calcium/calmodulin-dependent protein kinase type II subunit alpha (CAMK2A, Homo sapiens, UniProt Q9UQM7)
# Chain of UniProt Q9UQM7 (whole entry, looked up): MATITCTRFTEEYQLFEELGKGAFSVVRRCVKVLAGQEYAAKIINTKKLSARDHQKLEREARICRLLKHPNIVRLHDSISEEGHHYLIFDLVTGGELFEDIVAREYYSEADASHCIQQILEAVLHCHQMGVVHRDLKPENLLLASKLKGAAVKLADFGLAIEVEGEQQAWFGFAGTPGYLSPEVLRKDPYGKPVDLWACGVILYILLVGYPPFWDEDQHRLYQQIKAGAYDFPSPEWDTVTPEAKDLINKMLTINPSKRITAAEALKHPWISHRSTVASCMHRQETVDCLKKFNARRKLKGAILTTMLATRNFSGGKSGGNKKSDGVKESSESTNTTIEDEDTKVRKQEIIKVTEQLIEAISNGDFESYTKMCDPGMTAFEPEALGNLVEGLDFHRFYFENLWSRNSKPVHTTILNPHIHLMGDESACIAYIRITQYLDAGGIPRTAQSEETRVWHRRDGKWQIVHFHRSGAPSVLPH
SMILES,inhibition [%]
O=C(c1ccccc1)c1ccc2n1CCC2C(=O)O (stereo not shown),8
O=C(O)C1=CO[C@@H](O[C@@H]2O[C@H](CO)[C@@H](O)[C@H](O)[C@H]2O)[C@H]2[C@@H]1C=C[C@]2(O)CO,-27
CC/C(=C(/CC)c1ccc(O)cc1)c1ccc(O)cc1,0
CC(C)(C#N)c1cc(Cn2cncn2)cc(C(C)(C)C#N)c1,4
CN(C)CCOc1ccc(/C(=C(/CCCl)c2ccccc2)c2ccccc2)cc1,-14
COc1cc(C)c2c(Oc3cccc(C(F)(F)F)c3)c(OC)cc(NC(C)CCCN)c2n1 (stereo not shown),0
OC[C@@H](O)[C@@H](O)CO,9
NC[C@H](O)c1ccc(O)c(O)c1,-13
Cn1c(=O)c2nc[nH]c2n(C)c1=O,10
Cc1cc(O[C@@H]2O[C@H](CO)[C@@H](O)[C@H](O)[C@H]2O)c2c(c1)C(=O)c1cc(O)cc(O)c1C2=O,5

# Study 2 — observed: cell-free assay; technique: competition with immobilised ligand; concentration: 1 µM
# SMILES: CNC(=O)Nc1ccc2c(c1)CC[C@@]21OC(=O)N(CC(=O)N(Cc2ccc(F)cc2)[C@@H](C)C(F)(F)F)C1=O
target,remaining binding [%]
"CDK8 (Homo sapiens, UniProt P49336)",100
"OXSR1 (Homo sapiens, UniProt O95747)",80
"PIK3CA (Homo sapiens, UniProt P42336)",83
"MAP3K9 (Homo sapiens, UniProt P80192)",89
"TLK1 (Homo sapiens, UniProt Q9UKI8)",88
"MAST1 (Homo sapiens, UniProt Q9Y2H9)",94
"SIK3 (Homo sapiens, UniProt Q9Y2K2)",94
"Cyclin-dependent kinase 4, with cyclin D1 (CDK4, Homo sapiens, UniProt P11802)",91
"Tyrosine-protein kinase ABL1, phosphorylated (ABL1, Homo sapiens, UniProt P00519, T315I)",100
"GRK4 (Homo sapiens, UniProt P32298)",98
"PHKG1 (Homo sapiens, UniProt Q16816)",100
"TAOK2 (Homo sapiens, UniProt Q9UL54)",91
"Tyrosine-protein kinase ABL1, non-phosphorylated (ABL1, Homo sapiens, UniProt P00519, Q252H)",72
"MAP3K2 (Homo sapiens, UniProt Q9Y2U5)",100
"ERBB2 (Homo sapiens, UniProt P04626)",100

# Study 3 — medium: plasma
# Compound: O=C1CCC(N2Cc3cc(C4CCN(Cc5ccccc5)CC4)ccc3C2=O)C(=O)N1 (stereo not shown)
system,setting,concentration [ng/mL]
male CD-1 mouse,"intravenous, 1 mg/kg, 2 h",41.6
male Sprague-Dawley rat,"intravenous, 1 mg/kg, 15 min",109
male CD-1 mouse,"intravenous, 1 mg/kg, 1 h",87.5
male CD-1 mouse,"oral, 3 mg/kg, 8 h",5.04
male Sprague-Dawley rat,"intravenous, 1 mg/kg, 6 h",14.1
male Sprague-Dawley rat,"oral, 3 mg/kg, 1 h",55.6
male CD-1 mouse,"oral, 3 mg/kg, 6 h",10.4

# Study 4 — observed: RNA clamping; technique: fluorescence polarization; concentration: concentration not given; with: FAM-labelled poly r(AG)8 RNA
# Target: Eukaryotic initiation factor 4A-III (Homo sapiens, UniProt P38919)
# Chain of UniProt P38919 (whole entry, looked up): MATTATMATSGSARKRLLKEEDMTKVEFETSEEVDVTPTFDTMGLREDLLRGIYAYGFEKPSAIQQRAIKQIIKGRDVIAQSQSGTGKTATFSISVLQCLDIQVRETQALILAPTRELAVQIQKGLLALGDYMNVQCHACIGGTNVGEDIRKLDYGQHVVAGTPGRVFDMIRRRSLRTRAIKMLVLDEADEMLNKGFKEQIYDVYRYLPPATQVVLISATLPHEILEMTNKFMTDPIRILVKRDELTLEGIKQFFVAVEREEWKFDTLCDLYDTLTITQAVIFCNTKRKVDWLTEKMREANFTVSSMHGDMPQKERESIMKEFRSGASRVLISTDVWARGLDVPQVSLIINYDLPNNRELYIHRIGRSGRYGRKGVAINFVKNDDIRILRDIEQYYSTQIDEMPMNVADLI
SMILES,fluorescence polarization change
C#CCCC1(CCOc2ccc([C@@H]3[C@@H](C(=O)N(C)OC)[C@@H](O)[C@@]4(O)c5c(OC)cc(OC)cc5O[C@@]34c3ccc(OC)cc3)cc2)N=N1,3.4 mP
O=C1C[C@@H](c2ccccc2)[C@]2(c3ccc(Br)cc3)Oc3cc(F)cc(F)c3[C@]12O,-1 mP
COc1ccc([C@@]23Oc4cc(OC)cc(OC)c4[C@]2(O)c2nc(-c4ccccc4)[nH]c(=O)c2/C3=C\Cc2ccccc2)cc1,2.7 mP
COC(=O)[C@@H]1[C@@H](c2ccccc2)[C@]2(c3ccc(OC)cc3)Oc3cc(OC)cc(OC)c3[C@@]23NC(CCl)=N[C@@]13O,14.9 mP
COc1ccc([C@]23Oc4cc(OC)cc(OC)c4[C@](O)([C@H](C(=O)NCCCC(OC)OC)[C@H]2c2ccccc2)[C@@H]3O)cc1,-9.7 mP
COC(=O)C1=C(OS(=O)(=O)c2ccc(C)cc2)[C@@]2(O)c3c(OC)cc(OC)cc3O[C@@]2(c2ccc(OC)cc2)[C@@H]1c1ccccc1,-0.8 mP
COc1ccc([C@@]23Oc4cc(OC)cc(OC)c4[C@]2(O)C2=C(C(=O)N4CCC[C@@]4(C)N2)[C@H]3c2ccccc2)cc1,5 mP
COC(=O)[C@H]1C(=O)[C@@]2(NCCc3scnc3C)c3c(OC)cc(OC)cc3O[C@@]2(c2ccc(OC)cc2)[C@@H]1c1ccccc1,5.6 mP
